Published values collected from several papers.
Parts stem from different laboratories: compare values within a part only. Positions count from the first letter of the parent shown.
Chain of UniProt Q9XED8 (whole entry, looked up): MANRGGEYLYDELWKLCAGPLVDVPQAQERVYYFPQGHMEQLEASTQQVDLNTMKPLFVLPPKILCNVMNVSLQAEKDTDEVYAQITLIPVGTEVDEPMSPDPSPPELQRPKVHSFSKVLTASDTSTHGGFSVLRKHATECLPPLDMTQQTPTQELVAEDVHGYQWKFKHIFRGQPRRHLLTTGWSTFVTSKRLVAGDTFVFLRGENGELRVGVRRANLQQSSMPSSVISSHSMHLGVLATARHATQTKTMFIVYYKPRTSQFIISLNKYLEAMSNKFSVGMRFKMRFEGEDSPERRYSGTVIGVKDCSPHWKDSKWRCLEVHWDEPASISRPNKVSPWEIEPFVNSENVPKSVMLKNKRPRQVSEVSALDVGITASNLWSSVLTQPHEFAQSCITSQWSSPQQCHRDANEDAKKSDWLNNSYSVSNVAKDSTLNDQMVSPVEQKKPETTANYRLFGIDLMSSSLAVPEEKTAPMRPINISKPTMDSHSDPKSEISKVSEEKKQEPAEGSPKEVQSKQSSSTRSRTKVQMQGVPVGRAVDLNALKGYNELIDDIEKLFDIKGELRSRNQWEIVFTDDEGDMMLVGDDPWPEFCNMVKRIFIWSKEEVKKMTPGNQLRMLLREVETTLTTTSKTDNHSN
Chain of UniProt Q8RYC8 (whole entry, looked up): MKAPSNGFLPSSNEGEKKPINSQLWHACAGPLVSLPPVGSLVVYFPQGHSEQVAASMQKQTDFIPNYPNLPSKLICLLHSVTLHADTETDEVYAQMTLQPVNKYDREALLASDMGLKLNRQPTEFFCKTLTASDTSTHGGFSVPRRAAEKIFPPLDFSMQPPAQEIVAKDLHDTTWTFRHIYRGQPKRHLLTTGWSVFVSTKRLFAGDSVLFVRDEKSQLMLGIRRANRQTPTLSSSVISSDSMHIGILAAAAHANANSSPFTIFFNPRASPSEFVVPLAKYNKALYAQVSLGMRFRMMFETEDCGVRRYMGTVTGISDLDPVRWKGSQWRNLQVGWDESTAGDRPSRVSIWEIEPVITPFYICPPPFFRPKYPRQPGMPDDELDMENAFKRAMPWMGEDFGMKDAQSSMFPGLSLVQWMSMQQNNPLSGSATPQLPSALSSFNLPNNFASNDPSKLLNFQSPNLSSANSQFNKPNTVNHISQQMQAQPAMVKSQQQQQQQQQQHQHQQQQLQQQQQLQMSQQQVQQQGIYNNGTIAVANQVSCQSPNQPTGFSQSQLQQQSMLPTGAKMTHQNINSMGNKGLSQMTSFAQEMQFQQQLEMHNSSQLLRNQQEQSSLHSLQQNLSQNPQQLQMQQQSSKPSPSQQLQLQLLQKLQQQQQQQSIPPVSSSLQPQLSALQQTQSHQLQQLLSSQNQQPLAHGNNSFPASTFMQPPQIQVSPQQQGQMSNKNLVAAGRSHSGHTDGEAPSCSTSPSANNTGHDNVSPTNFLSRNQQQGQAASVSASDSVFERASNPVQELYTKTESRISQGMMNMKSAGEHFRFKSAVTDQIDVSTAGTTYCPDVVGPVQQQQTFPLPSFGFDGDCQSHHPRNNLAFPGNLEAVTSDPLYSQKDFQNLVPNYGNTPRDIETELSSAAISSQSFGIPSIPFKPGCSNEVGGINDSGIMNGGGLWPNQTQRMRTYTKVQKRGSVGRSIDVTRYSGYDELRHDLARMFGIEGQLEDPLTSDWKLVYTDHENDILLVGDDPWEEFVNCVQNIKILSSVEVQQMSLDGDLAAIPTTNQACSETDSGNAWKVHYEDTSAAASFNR

Sample 1
Target: CCNB1, cyclin fold, Cln2 fusion (human)
Method: yeast growth competition, sequencing
Matrix: yeast
Notes: weak parent motif
Baseline: not given
Direction: higher = stronger binding
Parent: viral docking peptide; KKVKRRLFETREL
Change	normalised enrichment score
R11A	1.71
R5K F8L	-0.0454
V3A	0.839
R5A	0.623
K4A	-0.207
K1A	0.783
E12A	0.373

Sample 2
Target: Histone acetyltransferase KAT6A, winged helix 2, GST fusion (KAT6A, Homo sapiens, UniProt Q92794, residues 85-181)
Method: protein binding microarray
Form: double-stranded DNA, one strand shown
Matrix: in vitro
Tested at: not given
Notes: 8-mer, flanks averaged, mean of 2 arrays, mostly near background
Baseline: not given
Direction: higher = stronger binding
Target sequence (chain): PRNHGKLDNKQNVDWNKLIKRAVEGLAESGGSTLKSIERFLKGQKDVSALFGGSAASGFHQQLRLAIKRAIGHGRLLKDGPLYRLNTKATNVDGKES
Strand	E-score
GGATAGTA	-0.041
ATCTGGAG	0.0528
GAATTTGC	0.0819
CGCGGATA	0.156
ACGTGCCA	-0.168
GCGTGCCC	0.112
GTTGTTGA	0.0948
GATACACC	0.103

Sample 3
Target: HLA class I histocompatibility antigen, A alpha chain, allele A*25:01 (Homo sapiens, UniProt P04439)
Effect on: peptide-MHC binding
Form: peptide
Tested at: concentration not given
Molecule	binding
LPADPASVL	inactive
SMLCWLGMT	inactive
LAMLVLHQV	inactive

Sample 4
Molecule: B1 (IAA9)
Method: two-hybrid
Direction: higher = firmer interaction
B1: IAA9 (Arabidopsis thaliana, UniProt Q38827); chain MSPEEELQSNVSVASSSPTSNCISRNTLGGLKEHNYLGLSDCSSVGSSTLSPLAEDDKATISLKATELTLGLPGSQSPARDTELNLLSPAKLDEKPFFPLLPSKDEICSSSQKNNASGNKRGFSDTMDQFAEAKSSVYTEKNWMFPEAAATQSVTKKDVPQNIPKGQSSTTNNSSSPPAAKAQIVGWPPVRSYRKNTLATTCKNSDEVDGRPGSGALFVKVSMDGAPYLRKVDLRSYTNYGELSSALEKMFTTFTLGQCGSNGAAGKDMLSETKLKDLLNGKDYVLTYEDKDGDWMLVGDVPWEMFIDVCKKLKIMKGCDAIGLAAAPRAMEKSKMRA
partner	setting	how to read	positive tests
ARF9 519-638 (Arabidopsis thaliana, UniProt Q9XED8)	weak activation fusion	baseline: out of 0 tests	0
IAA14 (Arabidopsis thaliana, UniProt Q38832)	–	baseline: out of 2 tests	2
ARF19 948-1086 (Arabidopsis thaliana, UniProt Q8RYC8)	–	baseline: out of 2 tests	1

Some of these lines once more (sample 2):
Strand	E-score
GAATTTGC	0.0819
CGCGGATA	0.156
ACGTGCCA	-0.168
